Results pooled from the literature.
± gives the spread as reported.

Structure (SMILES)	tested on	assay	test system	setting	endpoint	result
CC1(C)S[C@@H]2[C@H](NC(=O)[C@H](N)c3ccccc3)C(=O)N2[C@H]1C(=O)O	Lacticaseibacillus rhamnosus	broth microdilution	GG ATCC 53103, MRS medium	24 h, 37 °C	MIC	2.5 ± 0.9 µg/mL
O=C(O)c1ccc(-n2nc(-c3ccccc3O)nc2-c2ccccc2O)cc1	Cryptococcus neoformans	microbial growth, broth dilution		48 h	MIC	> 100 µM
Fc1ccc2nc(-c3ccc(OCc4cn(CCN5CCOCC5)nn4)cc3)[nH]c2c1	Enterococcus faecalis	microbial growth, broth dilution	ATCC29212		MIC	0.25 µg/mL
Cc1c(CN(C)C(=O)/C=C/c2cnc3c(c2)CCC(=O)N3)oc2ccccc12	Gram-negative ESKAPE pathogens, Escherichia coli			up to solubility limit	MIC	> 32 µg/mL
OB(O)O	Aspergillus niger	broth macrodilution	ATCC 16888	with: zinc borate 9%	MIC	0.0058%
O=c1c(-c2ccccc2)c1-c1ccccc1	cysteine peptide Ac-RFAACAA-COOH	peptide depletion, DPRA RapidFire-MS/MS		24 h, pH 7.5, room temperature, with: 5.0 µM cysteine peptide	IC50	23.8 µM
Cc1ccc(S(=O)(=O)N2C(=O)CSC2c2ccccc2O)cc1 (centres unmarked)	Streptococcus pneumoniae	broth microdilution	ATCC 49619		MIC	128 µg/mL
Fc1cc(-c2nc3ccc(Cl)cc3[nH]2)ccc1OCCN1CCOCC1	Enterococcus faecalis	microbial growth, broth dilution	ATCC29212		MIC	> 256 µg/mL
CCN(CC)C(=S)SSC(=S)N(CC)CC	Cryptococcus neoformans		H99 wild type	48 h, 30 °C, SC medium, with: CuSO4 0.01 mM	MIC	2 µM
Cc1ccc(S(=O)(=O)N2C(=O)CSC2c2ccccc2[N+](=O)[O-])cc1 (centres unmarked)	Streptococcus pneumoniae	broth microdilution	ATCC 49619		MIC	64 µg/mL
O=C(O)c1cn(C2CC2)c2cc(N3CCNCC3)c(F)cc2c1=O	Enterococcus faecalis	microbial growth, broth dilution	ATCC29212		MIC	1 µg/mL
Oc1c(I)cc(Cl)c2cccnc12	Cryptococcus neoformans		H99 wild type	48 h, 30 °C, SC medium, no added copper	MIC	50 µM
Cc1ccc(S(=O)(=O)N2C(=O)CSC2c2cccc(C)c2)cc1 (centres unmarked)	Streptococcus pneumoniae	broth microdilution	ATCC 49619		MIC	128 µg/mL
c1ccc2[nH]c(-c3ccc(OCc4cn(CCN5CCOCC5)nn4)cc3)nc2c1	Enterococcus faecalis	microbial growth, broth dilution	ATCC29212		MIC	0.25 µg/mL
Cc1ccc(S(=O)(=O)N2C(=O)CSC2c2ccccc2Cl)cc1 (centres unmarked)	Streptococcus pneumoniae	broth microdilution	ATCC 49619		MIC	64 µg/mL
Clc1ccc2nc(-c3ccc(OCCN4CCOCC4)cc3)[nH]c2c1	Enterococcus faecalis	microbial growth, broth dilution	ATCC29212		MIC	0.25 to 1 µg/mL
COC(=O)c1ccccc1O	cysteine peptide Ac-RFAACAA-COOH	peptide depletion, DPRA RapidFire-MS/MS		24 h, pH 7.5, room temperature, with: 5.0 µM cysteine peptide	IC50	inactive

A few entries again:
Structure (SMILES)	tested on	assay	test system	setting	endpoint	result
O=C(O)c1cn(C2CC2)c2cc(N3CCNCC3)c(F)cc2c1=O	Enterococcus faecalis	microbial growth, broth dilution	ATCC29212		MIC	1 µg/mL
Oc1c(I)cc(Cl)c2cccnc12	Cryptococcus neoformans		H99 wild type	48 h, 30 °C, SC medium, no added copper	MIC	50 µM
